Experimental data of several laboratories.
Parts stem from different laboratories: compare values within a part only. Positions count from the first letter of the parent shown.

Sample 1
Target: RING finger protein unkempt homolog, zinc fingers 1-6, GST-SBP tag (UNK, Homo sapiens, UniProt Q9C0B0, residues 30-357)
Method: RNA Bind-n-Seq
Form: RNA
Medium: in vitro
Concentration: not given
Notes: RNA with constant flanks, human and mouse sites, ends assumed
Baseline: input RNA pool
Direction: higher = stronger binding
Target sequence (chain): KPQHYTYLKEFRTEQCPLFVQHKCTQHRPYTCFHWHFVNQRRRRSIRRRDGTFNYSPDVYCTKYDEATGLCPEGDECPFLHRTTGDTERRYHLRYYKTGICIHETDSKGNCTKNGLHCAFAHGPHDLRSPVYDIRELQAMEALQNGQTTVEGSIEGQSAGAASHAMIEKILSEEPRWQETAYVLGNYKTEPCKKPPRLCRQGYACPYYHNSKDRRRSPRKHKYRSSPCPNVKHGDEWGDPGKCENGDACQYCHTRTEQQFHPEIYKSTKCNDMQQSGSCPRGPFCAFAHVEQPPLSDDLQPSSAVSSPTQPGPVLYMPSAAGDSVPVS
Strand | bound/input enrichment [ratio]
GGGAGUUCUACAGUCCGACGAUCGAGCUUAAAGAGUUAGACCCCAAGUUGGCUCCCUGGAUCCAGAGACUGAAUAGUUUUGGCUUGGAUGCCAUAGGACCCUUUUUCACUCGGUACGGAGCAUCUCUCAAGGAGCUUGAUUUCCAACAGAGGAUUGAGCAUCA | 0.918
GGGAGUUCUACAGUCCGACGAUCAGAGUCGACACAAUUUUGGAAUUUUCUCAGAAUAUGAAUACGAAAUACUAUGGACUACAAAUUUUGGAAAAUGUGAUAAAAACAAGGUGGAAGAUUCUUCCAAGGAACCAGUGCGAAGGACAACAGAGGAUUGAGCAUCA | 0.331
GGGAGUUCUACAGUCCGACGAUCUUCUCCAGCUGCUUUUGCUAUAAGCAUUAUUGUAAGAGUAUCUCAAGCAGGGGUCGUUACAACCGUGAUUUGGAACAGGAUGAAGCAUUUAUUCCAGUAGGAGAAUCAUUGAAAGACCUGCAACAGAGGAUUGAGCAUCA | 0.186
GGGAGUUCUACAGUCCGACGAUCUUGUCCAAAAGGCGGAGUCAGUUAAAACAAGCUGUUGCCAAAAUGGUUCAACAGUGCUGUACUUAUGUUGAGGAAAUCACAGACCUUCCUAUCAAACUUCGAUUAAUUGAUACUCUACGACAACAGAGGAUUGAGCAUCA | 0.0746
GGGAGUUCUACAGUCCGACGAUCGGUGAAAAAUCAAAUGCCAAAAUAAAGGAUGAAGAUCAUAGUCCAACAUUUGAAAAUUCAGAUUGCACACUGAAAAAAAUGGAUAAAGAAGGUAAAACAUUAAAAAAACAUAAAUUGAAGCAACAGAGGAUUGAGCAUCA | 0.631
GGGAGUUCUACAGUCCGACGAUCAGUGAAAAUAUUUCUGCAGCUAUCCAAGCUAAUGGUGAAAUGGUUACAAAGCAACCAUUGAUUAGAAGUAUGCGAACUGUAAAAAGGGAAACUUUAAAGUUAAUAUCUGGUUGGGUGAGCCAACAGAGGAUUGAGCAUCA | 0.317
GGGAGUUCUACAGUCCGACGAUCUCUACAUAUUUUGCUUGGUGCCCGGAUGGUGAGCAUAUUUUAACAGCUACAUGUGCUCCCAGGUUACGGGUUAAUAAUGGAUACAAAAUUUGGCAUUAUACUGGCUCUAUCUUGCACAAGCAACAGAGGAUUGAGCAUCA | 0.218
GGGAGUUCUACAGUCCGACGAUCAGCCCGCGGGCGCCUCAGGUAGAAGAAGAAAGGUGCCACUCCGGCAUGAAGACAGACUCGCUUAGUCGCCAGUCACUUAAGCUGAGUGCAUUGUGAUUUCCAAUAAUUGAGGCAGUGGUUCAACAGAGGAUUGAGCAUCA | 0.117

Sample 2
Target: RNA binding protein fox-1 homolog 2, RRM domain, GST-SBP tag (RBFOX2, Homo sapiens, UniProt O43251-10, residues 100-194)
Method: RNA Bind-n-Seq
Form: RNA
Medium: in vitro
Concentration: 365 nM
Notes: natural RNA segment, single round, ends assumed
Baseline: no-protein control
Direction: higher = stronger binding
Construct (chain): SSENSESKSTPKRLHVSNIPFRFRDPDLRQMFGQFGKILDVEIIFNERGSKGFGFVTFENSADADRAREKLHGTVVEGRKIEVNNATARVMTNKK
Strand | RBNS enrichment (R)
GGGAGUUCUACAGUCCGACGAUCCAAAACGUAUGUGUGAAUGUAGUUAUAAUGCUUUUGAAAAAUUUUCCUUUUUCUAUAUCCCCUUAGUCCAGCCUCUCUUCUCAGACAUUUAGCUAUCUGCCUCUUUCCUUUGGAAUUCUCGGGUGCCAA | 1.02
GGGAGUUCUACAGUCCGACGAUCCUUGGUGGCAACUCCUUUGCAAUGCAGCUGGCAGCGACAUCCUUAUAAAAACAUGUGCUAAAGCUCUGUCCUCUGUUAGAGGUGCCUUUUAGGAAUACGGGGAGUGAAGGUGGAAUUCUCGGGUGCCAA | 0.755
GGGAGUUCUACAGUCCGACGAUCCCUCAGGCUGGAGCCUGGGUGUUGGAAGGGAGAGACUGUCACCCAGUUGUCAUGUCUUUUGGUUGUGAGCCUAUGCACCUUACCUUUAAUGGUUGAACCAUCUUUUCAGCUGGAAUUCUCGGGUGCCAA | 0.514
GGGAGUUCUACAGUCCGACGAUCCCAGUGCCUGUGGAGUCAGCCAGCCGAGGGUCUGCCUCCUCAGCUGCCCCAGGGGGGCCUCCCUCCUGAGGCUCAAGCUCCUGGCGUCUUUCUUCCUGUUGCUGGAUUCUUGGAAUUCUCGGGUGCCAA | 0.467
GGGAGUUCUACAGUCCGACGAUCCUUAUUUUUUUAAAUAAGUUUUUAGGUCCUGACACUGACAUCAAAUACAUGCACACCAGAAAGGCAUUUCCACCACCGUCCCCACUCAUUAGCGUCCAGAGUGCCUUUCUUGGAAUUCUCGGGUGCCAA | 0.46
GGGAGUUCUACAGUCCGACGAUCAUUUGUUUAGGGUUGUGAGGUUGUGUAAAAUAGUACUAGCUUCUUACUUGAGAACUACAGUUUCUGCUUAUCAUUUAUUCUUCCUUGUGGCACUUAAUAUUUUAAUUGUCUGGAAUUCUCGGGUGCCAA | 0.304
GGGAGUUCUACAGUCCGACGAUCCGCAGUGGACUGUGUCCCUCGGUGCAGAAACUACCAGAUUUGAGGGACGAGGUCAAGGAGAUAUGAUAGGCCCGGAAGUUGCUGUGCCCCAUCAGCAGCUUGACGCGUGGUGGAAUUCUCGGGUGCCAA | 1.29
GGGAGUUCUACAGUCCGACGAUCUCCAUAGCACUUAACUGUAGUGAAUACUGUGUCACCAGUUCUGAAAUCAAUUUAAUGUUUAAUGCAAAUCCAUUACAUGGUGCUAUUACAGGCUGACAAAAUGAUUCACAUGGAAUUCUCGGGUGCCAA | 0.32

Sample 3
Target: Hepatocyte nuclear factor 3-alpha (Foxa1, Mus musculus, UniProt P35582, residues 1-468, full length assumed)
Method: EMSA with sequencing
Form: double-stranded DNA, one strand shown
Medium: in vitro
Concentration: 10 and 20 nM
Notes: whole designed probe, mean of two concentrations, ends assumed
Baseline: negative control set to 0
Direction: higher = stronger binding
Construct (chain): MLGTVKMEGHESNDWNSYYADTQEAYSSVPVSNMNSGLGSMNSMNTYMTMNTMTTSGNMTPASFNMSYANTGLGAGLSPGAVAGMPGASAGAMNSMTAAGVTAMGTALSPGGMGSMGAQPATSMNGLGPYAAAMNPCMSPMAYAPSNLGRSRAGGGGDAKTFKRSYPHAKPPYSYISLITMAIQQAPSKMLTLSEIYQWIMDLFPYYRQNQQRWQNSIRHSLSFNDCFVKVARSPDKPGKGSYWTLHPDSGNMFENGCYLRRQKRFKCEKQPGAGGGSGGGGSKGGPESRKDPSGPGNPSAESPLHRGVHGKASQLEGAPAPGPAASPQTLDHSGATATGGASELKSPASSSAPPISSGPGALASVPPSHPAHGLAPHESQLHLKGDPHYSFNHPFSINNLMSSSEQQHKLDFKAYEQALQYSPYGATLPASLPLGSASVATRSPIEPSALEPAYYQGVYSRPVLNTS
Strand | normalised bound fraction
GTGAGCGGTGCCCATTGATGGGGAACATCTTCCCCCTCTTCCTTGCCCCACCAGCTCACCTTCCCGGGTATATTGGAGATAGGAAATTAATATAAGCCGGCATTCGTTAACCCTCTTCTGGCGCAAACTGCTGTTTACTTTGGATCTAACATGGTCCTTTGGCGACGCCAGGCTCCGGGAGAGCAAAGCACCGTGTCAGGGCCATGATCCGGGGTGGCCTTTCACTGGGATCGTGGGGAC | 0.345 ratio
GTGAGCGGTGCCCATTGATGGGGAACATCTTCCCCCTCTTCCTTGCCCCACCAGCTCACCTTCCCGGGTTATTTGCACAAAGGAAAATAAATAAAGCCGGCATTCGTTAACGCAGTTCACGCGCATACTGCTGTTTGCTCTGGATCTAACATGGTCCTTTGGCGAGGCGTGGCTCCGGGAGAGCAAAGCACCGTGTCAGGGCCATGATCCGGGGTGGCCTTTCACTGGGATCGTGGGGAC | 0.367 ratio
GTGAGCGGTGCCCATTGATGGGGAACCTGCTTTATTAGTTACATGAGTTGGGCAAAACCTTTTGGAATAGACCAGTGTCACCAAGACAACAGGACGGTTATAGAAAGGCAGAAAAACAATGTAATCTAACATTTTATAAGCATAAATAATAATAGTTATTCTTCTATATACATTCAGTGTCTCTAAGCAGATCCAAAGATTTGCCAAGTTTTAATGAGATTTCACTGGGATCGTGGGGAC | -0.0101 ratio
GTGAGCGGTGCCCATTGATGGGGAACCTGCTTAATTAATTAGAAGTCCACAGGATATCAAATGCCCTAAATGCTAGGCCAGCACTCTTCATTTTCCTATTTAATCCTTTGTTTTTACTTGTTTACTTTTCTCTAAAACTTTTTTCCCCCCTCAAAGCTCATGATGGATAAAAGCATTGCATTTTCTTCACATTAATCAGTTTTAACATCACAGGCAAAATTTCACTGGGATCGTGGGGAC | 0.432 ratio
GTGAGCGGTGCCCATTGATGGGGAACATGAAATGTTTATTAAGCACCTGTTATTACACACTGGGGGACCCGAAGAGTTATACAACAGCTCATTTATAAAACCTAGCAGGAGGGACACAATGTAATCTTGAGCAAATGACAATAAAAATTTCATTTGAAATAAATGTAATATTTGATAAGTGTTCAAGACATTTAGAGGAGGGAGTCATCGTTGCATCCCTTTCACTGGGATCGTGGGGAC | 0.116 ratio

Other studies, line by line
Starting sequence: viral docking peptide; CKVKRKLFGSENI
Variant | target | assay | system | conditions | scale | quantity | value
CAVKRKLFGSENI [K2A] | CCNE2, cyclin fold, Cln2 fusion (human) | yeast growth competition, sequencing | yeast | strong parent motif | baseline: not given, higher = stronger binding | normalised enrichment score | 3.24

A few entries again (sample 1):
Strand | bound/input enrichment [ratio]
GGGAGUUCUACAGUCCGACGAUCUUGUCCAAAAGGCGGAGUCAGUUAAAACAAGCUGUUGCCAAAAUGGUUCAACAGUGCUGUACUUAUGUUGAGGAAAUCACAGACCUUCCUAUCAAACUUCGAUUAAUUGAUACUCUACGACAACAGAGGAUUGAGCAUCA | 0.0746
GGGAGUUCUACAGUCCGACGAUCUUCUCCAGCUGCUUUUGCUAUAAGCAUUAUUGUAAGAGUAUCUCAAGCAGGGGUCGUUACAACCGUGAUUUGGAACAGGAUGAAGCAUUUAUUCCAGUAGGAGAAUCAUUGAAAGACCUGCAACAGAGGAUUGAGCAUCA | 0.186
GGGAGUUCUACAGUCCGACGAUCAGAGUCGACACAAUUUUGGAAUUUUCUCAGAAUAUGAAUACGAAAUACUAUGGACUACAAAUUUUGGAAAAUGUGAUAAAAACAAGGUGGAAGAUUCUUCCAAGGAACCAGUGCGAAGGACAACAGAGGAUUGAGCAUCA | 0.331
